Assay results from different studies.
Each numbered part is a random draw from the data of one study; scales do not carry over between parts. Values joined by “and” are separate records of one study, mostly repeats; a detail may differ.
Sequence of UniProt P9WI81 (whole entry, looked up): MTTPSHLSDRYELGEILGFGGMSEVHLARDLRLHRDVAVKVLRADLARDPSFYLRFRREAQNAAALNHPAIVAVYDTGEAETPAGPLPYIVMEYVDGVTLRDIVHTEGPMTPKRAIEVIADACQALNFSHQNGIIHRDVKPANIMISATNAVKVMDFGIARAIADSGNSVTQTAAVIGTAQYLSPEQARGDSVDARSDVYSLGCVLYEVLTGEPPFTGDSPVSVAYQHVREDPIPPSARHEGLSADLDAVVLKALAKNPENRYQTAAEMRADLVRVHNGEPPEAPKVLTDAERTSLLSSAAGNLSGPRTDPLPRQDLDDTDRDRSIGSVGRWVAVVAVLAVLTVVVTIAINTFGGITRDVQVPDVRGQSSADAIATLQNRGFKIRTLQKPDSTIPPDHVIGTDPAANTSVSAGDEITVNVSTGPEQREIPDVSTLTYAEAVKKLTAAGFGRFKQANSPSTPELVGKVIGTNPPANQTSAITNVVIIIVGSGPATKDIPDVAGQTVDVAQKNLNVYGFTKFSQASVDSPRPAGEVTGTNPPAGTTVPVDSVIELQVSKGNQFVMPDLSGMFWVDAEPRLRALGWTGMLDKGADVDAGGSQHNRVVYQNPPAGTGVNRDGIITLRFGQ
Sequence of UniProt O15530 (whole entry, looked up): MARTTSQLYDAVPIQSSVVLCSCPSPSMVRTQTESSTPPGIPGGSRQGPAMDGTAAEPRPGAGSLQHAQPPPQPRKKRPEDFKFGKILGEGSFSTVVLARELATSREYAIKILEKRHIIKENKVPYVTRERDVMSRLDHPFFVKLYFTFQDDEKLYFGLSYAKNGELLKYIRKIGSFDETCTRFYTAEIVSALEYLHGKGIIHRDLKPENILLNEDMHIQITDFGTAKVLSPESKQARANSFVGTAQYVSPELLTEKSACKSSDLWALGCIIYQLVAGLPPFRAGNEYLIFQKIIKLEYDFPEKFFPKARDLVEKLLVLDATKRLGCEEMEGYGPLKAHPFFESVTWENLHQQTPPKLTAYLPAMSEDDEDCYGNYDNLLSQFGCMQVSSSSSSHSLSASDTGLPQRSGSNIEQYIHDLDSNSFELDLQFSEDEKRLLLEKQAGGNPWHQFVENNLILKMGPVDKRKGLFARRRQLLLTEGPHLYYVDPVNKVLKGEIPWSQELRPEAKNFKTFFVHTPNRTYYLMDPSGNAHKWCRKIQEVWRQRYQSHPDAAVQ
Sequence of UniProt Q9UEE5 (whole entry, looked up): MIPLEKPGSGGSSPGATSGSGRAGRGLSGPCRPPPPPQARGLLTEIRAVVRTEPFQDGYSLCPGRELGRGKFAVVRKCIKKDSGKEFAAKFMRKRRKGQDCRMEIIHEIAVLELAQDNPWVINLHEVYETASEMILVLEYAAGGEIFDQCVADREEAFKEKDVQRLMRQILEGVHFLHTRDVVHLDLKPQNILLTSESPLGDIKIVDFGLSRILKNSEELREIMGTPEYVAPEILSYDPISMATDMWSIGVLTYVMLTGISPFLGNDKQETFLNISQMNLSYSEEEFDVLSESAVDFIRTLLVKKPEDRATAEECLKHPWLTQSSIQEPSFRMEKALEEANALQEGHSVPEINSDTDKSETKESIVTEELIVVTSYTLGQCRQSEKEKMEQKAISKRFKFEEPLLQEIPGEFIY
Sequence of UniProt Q9H3Y6 (whole entry, looked up): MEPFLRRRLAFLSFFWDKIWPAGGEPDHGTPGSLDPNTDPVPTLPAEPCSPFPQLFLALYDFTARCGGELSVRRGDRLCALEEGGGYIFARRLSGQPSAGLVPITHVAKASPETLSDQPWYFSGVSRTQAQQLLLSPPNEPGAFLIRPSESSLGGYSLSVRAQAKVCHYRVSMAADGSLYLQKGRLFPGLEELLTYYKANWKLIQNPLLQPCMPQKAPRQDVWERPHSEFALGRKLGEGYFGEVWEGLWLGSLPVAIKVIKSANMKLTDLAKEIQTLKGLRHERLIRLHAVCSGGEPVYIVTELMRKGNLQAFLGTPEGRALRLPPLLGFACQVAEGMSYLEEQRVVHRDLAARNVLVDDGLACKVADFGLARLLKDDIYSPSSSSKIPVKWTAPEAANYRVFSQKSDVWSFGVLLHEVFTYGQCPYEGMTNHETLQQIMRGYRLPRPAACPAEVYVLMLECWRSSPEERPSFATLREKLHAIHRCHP
Sequence of UniProt P62344 (whole entry, looked up): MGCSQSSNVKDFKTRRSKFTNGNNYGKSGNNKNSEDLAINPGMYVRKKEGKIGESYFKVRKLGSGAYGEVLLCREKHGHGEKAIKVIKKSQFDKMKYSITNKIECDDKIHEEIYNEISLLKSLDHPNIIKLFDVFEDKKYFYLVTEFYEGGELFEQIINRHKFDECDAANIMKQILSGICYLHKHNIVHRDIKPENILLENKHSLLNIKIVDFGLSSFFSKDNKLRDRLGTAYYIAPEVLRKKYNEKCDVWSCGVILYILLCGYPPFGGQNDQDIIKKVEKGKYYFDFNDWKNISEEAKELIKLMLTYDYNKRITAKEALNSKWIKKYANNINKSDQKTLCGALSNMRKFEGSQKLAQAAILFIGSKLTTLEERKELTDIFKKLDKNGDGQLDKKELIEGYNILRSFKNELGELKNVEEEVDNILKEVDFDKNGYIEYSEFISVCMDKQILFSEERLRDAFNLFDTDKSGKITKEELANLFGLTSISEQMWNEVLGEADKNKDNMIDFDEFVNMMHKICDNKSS
Sequence of UniProt P00519 (whole entry, looked up): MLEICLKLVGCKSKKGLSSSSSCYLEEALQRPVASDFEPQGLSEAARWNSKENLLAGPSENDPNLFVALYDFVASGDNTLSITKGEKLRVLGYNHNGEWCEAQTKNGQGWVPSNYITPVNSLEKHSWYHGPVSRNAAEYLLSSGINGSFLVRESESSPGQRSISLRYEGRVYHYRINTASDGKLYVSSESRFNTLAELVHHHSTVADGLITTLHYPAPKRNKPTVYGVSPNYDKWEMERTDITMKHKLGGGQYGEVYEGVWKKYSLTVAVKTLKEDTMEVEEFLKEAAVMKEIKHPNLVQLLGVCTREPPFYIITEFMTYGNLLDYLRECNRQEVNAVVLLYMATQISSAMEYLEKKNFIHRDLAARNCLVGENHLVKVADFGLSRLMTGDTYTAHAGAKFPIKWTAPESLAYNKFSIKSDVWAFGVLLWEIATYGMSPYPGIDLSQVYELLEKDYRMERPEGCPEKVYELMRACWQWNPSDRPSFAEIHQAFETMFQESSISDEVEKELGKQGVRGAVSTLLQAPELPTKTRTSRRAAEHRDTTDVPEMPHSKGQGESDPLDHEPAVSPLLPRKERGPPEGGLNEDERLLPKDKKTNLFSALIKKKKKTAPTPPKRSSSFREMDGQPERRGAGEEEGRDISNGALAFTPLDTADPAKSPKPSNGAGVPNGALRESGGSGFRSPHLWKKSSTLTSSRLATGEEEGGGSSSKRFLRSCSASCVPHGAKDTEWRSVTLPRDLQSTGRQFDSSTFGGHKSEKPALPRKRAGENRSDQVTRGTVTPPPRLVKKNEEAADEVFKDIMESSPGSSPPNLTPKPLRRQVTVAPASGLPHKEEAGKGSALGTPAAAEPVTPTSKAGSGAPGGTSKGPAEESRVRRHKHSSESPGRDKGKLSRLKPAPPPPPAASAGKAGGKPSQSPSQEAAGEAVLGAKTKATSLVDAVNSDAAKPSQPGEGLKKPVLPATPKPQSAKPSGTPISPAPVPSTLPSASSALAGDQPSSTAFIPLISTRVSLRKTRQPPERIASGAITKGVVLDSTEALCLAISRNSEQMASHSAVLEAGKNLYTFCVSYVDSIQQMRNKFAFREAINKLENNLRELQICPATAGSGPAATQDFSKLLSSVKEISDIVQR
Sequence of UniProt P61075 (whole entry, looked up): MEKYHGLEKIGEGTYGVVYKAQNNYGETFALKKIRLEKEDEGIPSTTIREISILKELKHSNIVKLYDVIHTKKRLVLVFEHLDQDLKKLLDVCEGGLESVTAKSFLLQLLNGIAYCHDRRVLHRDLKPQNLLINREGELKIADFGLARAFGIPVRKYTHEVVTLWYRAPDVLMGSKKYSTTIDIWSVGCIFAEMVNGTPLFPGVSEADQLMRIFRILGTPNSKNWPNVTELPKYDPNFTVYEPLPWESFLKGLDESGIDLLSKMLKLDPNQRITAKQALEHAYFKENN
Sequence of UniProt Q16816 (whole entry, looked up): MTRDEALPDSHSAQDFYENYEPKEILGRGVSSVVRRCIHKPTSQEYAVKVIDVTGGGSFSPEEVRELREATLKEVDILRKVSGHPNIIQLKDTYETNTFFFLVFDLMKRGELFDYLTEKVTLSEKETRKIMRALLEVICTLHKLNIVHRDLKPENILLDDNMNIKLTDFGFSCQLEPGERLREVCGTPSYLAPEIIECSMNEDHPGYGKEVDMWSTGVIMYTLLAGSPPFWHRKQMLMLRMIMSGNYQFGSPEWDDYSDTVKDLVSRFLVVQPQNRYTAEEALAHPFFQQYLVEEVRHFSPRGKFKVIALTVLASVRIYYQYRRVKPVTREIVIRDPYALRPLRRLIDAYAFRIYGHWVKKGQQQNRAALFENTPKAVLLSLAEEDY

Sample 1
Structure (SMILES): CC(C)S(=O)(=O)c1ccc2nccc(Nc3ccc4sc(C5CCCC5)nc4c3)c2c1.Cl
cell line | test | setting | viability
L929 RIPK3 knockout |  | 50 µM | 65.3% and 62.4% and 63.4%
L929 | CCK-8 | 25 µM | 93.8% and 86% and 89.4% and 88.7%
L929 RIPK3 knockout |  | 3.125 µM, together with: zVAD | 102% and 105% and 103%
L929 RIPK3 knockout |  | 12.5 µM, together with: zVAD | 103% and 100% and 105% and 102%
L929 | CCK-8 | 3.125 µM | 101% and 102% and 97.7% and 100%
L929 RIPK3 knockout |  | 1.563 µM, together with: zVAD | 102% and 105% and 101%
L929 RIPK3 knockout |  | 3.125 µM | 97.5% and 104% and 97.3% and 96%
L929 | CCK-8 | 12.5 µM, together with: zVAD | 105% and 108% and 106% and 103%
L929 | CCK-8 | 12.5 µM | 113% and 112% and 110%

Sample 2
Target: Calcium/calmodulin-dependent protein kinase type II subunit alpha (CAMK2A, Homo sapiens, UniProt Q9UQM7)
Sequence of UniProt Q9UQM7 (whole entry, looked up): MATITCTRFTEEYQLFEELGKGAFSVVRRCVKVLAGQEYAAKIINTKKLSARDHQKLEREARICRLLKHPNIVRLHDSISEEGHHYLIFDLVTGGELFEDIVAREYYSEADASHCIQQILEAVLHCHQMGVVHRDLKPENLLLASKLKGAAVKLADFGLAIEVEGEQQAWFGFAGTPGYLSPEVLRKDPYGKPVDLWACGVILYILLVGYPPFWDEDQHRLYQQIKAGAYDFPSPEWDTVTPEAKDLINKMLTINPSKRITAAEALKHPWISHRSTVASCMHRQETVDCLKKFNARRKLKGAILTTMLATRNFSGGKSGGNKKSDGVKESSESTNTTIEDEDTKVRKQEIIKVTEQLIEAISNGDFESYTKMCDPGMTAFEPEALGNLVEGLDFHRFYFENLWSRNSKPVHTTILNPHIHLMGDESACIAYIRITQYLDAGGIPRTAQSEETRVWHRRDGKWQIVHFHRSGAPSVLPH
Effect on: enzyme activity
Mode: inhibitor
Concentration: 10 µM
Compound | inhibition [%]
O=c1cccc2n1C[C@H]1C[C@@H]2CN2CCCC[C@@H]12 | -8
NC(=O)Cc1ccccc1 | 5
c1ccc2c(c1)cc1ccc3cccc4ccc2c1c34 | -19
O=CN1C[C@@H]2C[C@H](C1)c1cccc(=O)n1C2 | 10
C[C@@H]1O[C@@H](O[C@@H]2C=C3CC[C@@H]4[C@H](CC[C@]5(C)[C@@H](c6ccc(=O)oc6)CC[C@]45O)[C@@]3(C)CC2)[C@H](O)[C@H](O)[C@H]1O | 19
C[C@H]1O[C@H](O[C@H]2[C@H](O)[C@@H](O)[C@@H](O)[C@H](O)[C@@H]2O)[C@@H](N)C[C@@H]1NC(=N)C(=O)O | -15
COC(=O)C1=CO[C@@H](C)[C@@H]2CN3CC[C@@]4(C(=O)Nc5ccccc54)[C@@H]3C[C@H]12 | -83

Sample 3
Compound: COc1ccc2c(c[n+](C)c3c4cc5c(cc4ccc23)OCO5)c1OC
Effect on: enzyme activity
Mode: inhibitor
Concentration: 0.5 µM
Relative to: control
target | remaining activity
Phosphorylase b kinase gamma catalytic chain, skeletal muscle/heart isoform (PHKG1, Homo sapiens, UniProt Q16816) | 90.4%
Serine/threonine-protein kinase 17A (STK17A, Homo sapiens, UniProt Q9UEE5) | 104%
Tyrosine-protein kinase Srms (SRMS, Homo sapiens, UniProt Q9H3Y6) | 86%
Tyrosine-protein kinase ABL1 (ABL1, Homo sapiens, UniProt P00519) | 92.7%
3-phosphoinositide-dependent protein kinase 1 (PDPK1, Homo sapiens, UniProt O15530) | 98.2%
Ribosomal protein S6 kinase alpha-6 (RPS6KA6, Homo sapiens, UniProt Q9UK32) | 91.1%

Further values, each from its own experiment
Effect on: cell-free assay
Technique: competition with immobilised ligand
Structure (SMILES) | target | setting | remaining binding
Cc1c[nH]c2nccc(Oc3c(F)cc(Nc4cc(Cl)nc(N)n4)cc3F)c12 | Serine/threonine-protein kinase PknB (pknB, Mycobacterium tuberculosis, UniProt P9WI81) | 0.1 µM | 98%
COCCOc1nc(-c2ccc(Cl)nc2)nc2c1CN(C(=O)c1ncn3ccccc13)CC2 | Calcium-dependent protein kinase 1 (CDPK1, Plasmodium falciparum, UniProt P62344) | 0.1 µM | 100%
CCCOc1ccc([C@@H]2[C@@H](C(=O)O)[C@H](c3ccc4c(c3)OCO4)CN2CC(=O)Nc2c(CC)cccc2CC)cc1 | Cyclin-dependent kinase 2 homolog (CRK2, Plasmodium falciparum, UniProt P61075) | 1 µM | 97%

For quick reference, copied from above (sample 3):
target | remaining activity
3-phosphoinositide-dependent protein kinase 1 (PDPK1, Homo sapiens, UniProt O15530) | 98.2%
Ribosomal protein S6 kinase alpha-6 (RPS6KA6, Homo sapiens, UniProt Q9UK32) | 91.1%
Serine/threonine-protein kinase 17A (STK17A, Homo sapiens, UniProt Q9UEE5) | 104%
